Measurements gathered from unrelated publications.
Each line is one published result; not all experiments were run side by side. ± marks the error that the study gave. The star is where a group is joined.
Mode: substrate

| Molecule | target | assay | conditions | Km |
| --- | --- | --- | --- | --- |
| CC(=O)OCOc1ccc2c(c1)Oc1cc(OCOC(C)=O)ccc1C21OC(=O)c2ccccc21 | porcine liver esterase | fluorogenic hydrolysis | pH 7.4, 23 °C, DMSO up to 1.5% | 3.2 µM |
| Nc1c(N=Nc2ccc(S(=O)(=O)CCOS(=O)(=O)O)cc2)c(S(=O)(=O)O)cc2cc(S(=O)(=O)O)c(N=Nc3ccc(S(=O)(=O)CCOS(=O)(=O)O)cc3)c(O)c12 | ancestral dye-decolorizing peroxidase | peroxidase activity, steady-state kinetics | 25 °C, pH 3.0 ABTS, 4.0 others | 13 µM |
| NC(=O)C1=CN([C@@H]2O[C@H](COP(=O)(O)OP(=O)(O)OC[C@H]3O[C@@H](n4cnc5c(N)ncnc54)[C@H](OP(=O)(O)O)[C@@H]3O)[C@@H](O)[C@H]2O)C=CC1 | Saccharopine dehydrogenase [NADP(+), L-glutamate-forming], D126A (LYS9, Saccharomyces cerevisiae, UniProt P38999) | enzyme activity | pH 7.0, 25 °C, D126A mutant, added: AASA and L-glutamate saturating | 44 ± 5 µM |
| Nc1ncnc2c1ncn2[C@@H]1O[C@H](COP(=O)(O)OP(=O)(O)OP(=O)(O)O)[C@@H](O)[C@H]1O | Unconventional myosin-Ic, one IQ, actin-free (Myo1c, Rattus norvegicus, UniProt Q63355) |  |  | 184 ± 22 µM |
| N[C@@H](Cc1ccccc1)C(=O)O | phenylalanine/tyrosine ammonia-lyase Cutaneotrichosporon cutaneum | trans-cinnamate absorbance | pH 7.5, 30 °C, 10% glycerol | 6100 ± 600 µM |
| N[C@@H](Cc1c[nH]cn1)C(=O)O | HARS1 (Homo sapiens, UniProt P12081, S356N) |  | pH 7.5, added: 10 mM ATP, 5 µM tRNAHis | 10.8 ± 9.1 µM |
| Nc1ccc2c(O)c(N=Nc3ccc(N=Nc4ccc(N=Nc5cc(S(=O)(=O)O)c6cccc(S(=O)(=O)O)c6c5)c5ccccc45)c4ccc(S(=O)(=O)O)cc34)c(S(=O)(=O)O)cc2c1 | ancestral dye-decolorizing peroxidase | peroxidase activity, steady-state kinetics | 25 °C, pH 3.0 ABTS, 4.0 others | 13 µM |
| Ac-LDEVD-pNA (N-acetyl, C-pNA; pNA = O=[N+]([O-])c1ccc(N*)cc1) | Caspase-6 (CASP6, Homo sapiens, UniProt P55212) | colorimetric p-nitroanilide release | pH 7.25 | 440 ± 40 µM |
| Nc1ncnc2c1ncn2[C@@H]1O[C@H](COP(=O)(O)OP(=O)(O)OP(=O)(O)O)[C@@H](O)[C@H]1O | kinesin-II double chimera, Caenorhabditis elegans | microtubule gliding velocity |  | 540 µM |
| CC(=O)Oc1cc2c(cc1F)C1(OC(=O)c3ccccc31)c1cc(F)c(OC(C)=O)cc1O2 | porcine liver esterase | fluorogenic hydrolysis | pH 7.4, 23 °C, DMSO up to 1.5% | 5.3 µM |
| O=C(Nc1ccc2c(O)c(N=Nc3ccc(N=Nc4ccc(S(=O)(=O)O)cc4)cc3S(=O)(=O)O)c(S(=O)(=O)O)cc2c1)Nc1ccc2c(O)c(N=Nc3ccc(N=Nc4ccc(S(=O)(=O)O)cc4)cc3S(=O)(=O)O)c(S(=O)(=O)O)cc2c1 | ancestral dye-decolorizing peroxidase | peroxidase activity, steady-state kinetics | 25 °C, pH 3.0 ABTS, 4.0 others | 2.9 µM |
| C/C1=C2/N[C@H]([C@H](CC(N)=O)[C@@]2(C)CCC(=O)NC[C@@H](C)OP(=O)(O)O[C@H]2[C@@H](O)[C@@H](n3cnc4cc(C)c(C)cc43)O[C@@H]2CO)[C@]2(C)N=C(/C(C)=C3N=C(/C=C4N=C1[C@@H](CCC(N)=O)C\4(C)C)[C@@H](CCC(N)=O)[C@]\3(C)CC(N)=O)[C@@H](CCC(N)=O)[C@]2(C)CC(N)=O.[Co] | meaD (Methylorubrum extorquens, UniProt C5AZG1) |  | added: ATP 1 mM | 0.4 ± 0.1 µM |

For quick reference, copied from above:
| Molecule | target | assay | conditions | Km |
| --- | --- | --- | --- | --- |
| Nc1ncnc2c1ncn2[C@@H]1O[C@H](COP(=O)(O)OP(=O)(O)OP(=O)(O)O)[C@@H](O)[C@H]1O | Unconventional myosin-Ic, one IQ, actin-free (Myo1c, Rattus norvegicus, UniProt Q63355) |  |  | 184 ± 22 µM |
